Assay results gathered from unrelated publications.
Each numbered part is a random draw from the data of one study; scales do not carry over between parts.

Block 1
Target: RNA binding protein fox-1 homolog 2, RRM domain, GST-SBP tag (RBFOX2, Homo sapiens, UniProt O43251-10, residues 100-194)
Method: RNA Bind-n-Seq
Molecule type: RNA
Sample: in vitro
Tested at: 365 nM
Setting: natural RNA segment, single round, ends assumed
Relative to: no-protein control
Reading: higher = stronger binding
Measurement: RBNS enrichment (R)
All sequences stand within: GGGAGUUCUACAGUCCGACGAUC … UGGAAUUCUCGGGUGCCAA
Target sequence (chain): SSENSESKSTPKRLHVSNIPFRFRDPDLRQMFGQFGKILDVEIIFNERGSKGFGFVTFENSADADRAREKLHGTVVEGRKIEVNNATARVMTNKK
GGAGAACAAAUCUCUCAGACAAAUGACUUGUACUAAAUUUGGCUUUGGUUUCCAAGCCAAGGGAAAAGCUGAAGACAUGAGUAAUGAUCUUGCUUCAUGAGAUUGUACCU: 0.28
CAGCCAUAGGCAAUGCUUAUUUGGGCAACUCUCACGCCUACAAGAGCAGAGAUGCACAAUAAGCAUUUGUCCAUUUGCUCUUUCCUCAACAGAGGAGAUUAGGAUUUCAA: 0.276
UACCUUUUCUUCACCGUUGUCGUUACAUUGUUAGAAAAGCAACAGGAAAAAAUCCAAUUCAUUUGACCUAAAAACAAGCCUCAAGUUUAAAACCAAGCUCACGUUUUUCU: 0.471
CUCCUGUUACAGCUUCCACACUCAGCCGGCUUGCUUCAGUAUUUUUGCUUCCUGUAUAUUCUUAUACAUGUUUUUGACUCCAGAAAAAUGACACCUUUAGACUGUUUCAG: 1.72
UCCAGUCUUCCCUUUAAAAGCCUGUGGCAUUUUUCCUCCUUCUCCCUAACUUUAGAAAUGUUGUACUUGGCUAUUUUGAUUAGGGAAGAGGGAUGUGGUCUCUGAUCUCU: 0.586
AGGAGACUACACUUUAAAUCGACCUGACAGAUUUUGAGAAAAACAGCAGCUUCGCACAAUACCAAAGUUUUAAAGUUGGUGAUAAAAAGUCUUUUUAUGAACUAAAUAUU: 0.384
AUAGAGGCAAGGGGUUACUGUGUGAAUCCCGGCUCCCUUCCACAUGCUGUACACCCUAUCCAUCUGUCAGGAGCUGGGGCAAGGAGCCAGAACCCUCUGCGCCUUGAGAU: 0.392
AGUUCUAGGGAGUGAGACAUUUUUGGGAGCAGAGGAAAACUCUGCUGAUGUUCGGUCCUGGCAAACAUUGAGUUAUUUUGAGCUGUGAAGGCAGUCGUCUCUGUUACACA: 0.706
UUAAACAUACCUGUGUUUUGAGAAGUGUCCUUCCCACUUUGGGCUUUCAGAAGGAAUACUUGGUUCUUUCUGGGGUCUCUAAUGUUCUCAGCCAAAACCUGGCCUGGCUA: 0.312
AAUAUUAGGAUUCUGUUUUCUACAUUGCAAGCACAGGCACCCAUAGUACACUUUUGUUGAAGUUACAAAACCAGAAUGAGUAUGGCAAGUUCCAAGGGUCCCCAGUGCUU: 1.2
GCCGCUCUCCCCUCCUGUGGAUCCCUCCGCACUAACAGUGUUCUCAGUGGGCAGACGCCUGGGCACCCCUUGGGCCCUGCCCAGCAUGGCCAUGGCGCAGGCUCUCGAAC: 2.47
GACCUUCAGUCCAGGACAGACCCUGUCAUGGCUUCUUGCUGUCUUACCCUUCUCACUCACCAGGCCCACAGUCGCCUGCACUCAGUGCUGUUUGUAACACAUCUGUUAUU: 0.715

Block 2
Target: RING finger protein unkempt homolog, zinc fingers 1-6, GST-SBP tag (UNK, Homo sapiens, UniProt Q9C0B0, residues 30-357)
Method: RNA Bind-n-Seq
Molecule type: RNA
Sample: in vitro
Tested at: not given
Setting: RNA with constant flanks, human and mouse sites, ends assumed
Relative to: input RNA pool
Reading: higher = stronger binding
Measurement: bound/input enrichment
All sequences stand within: GGGAGUUCUACAGUCCGACGAUC … CAACAGAGGAUUGAGCAUCA
Target sequence (chain): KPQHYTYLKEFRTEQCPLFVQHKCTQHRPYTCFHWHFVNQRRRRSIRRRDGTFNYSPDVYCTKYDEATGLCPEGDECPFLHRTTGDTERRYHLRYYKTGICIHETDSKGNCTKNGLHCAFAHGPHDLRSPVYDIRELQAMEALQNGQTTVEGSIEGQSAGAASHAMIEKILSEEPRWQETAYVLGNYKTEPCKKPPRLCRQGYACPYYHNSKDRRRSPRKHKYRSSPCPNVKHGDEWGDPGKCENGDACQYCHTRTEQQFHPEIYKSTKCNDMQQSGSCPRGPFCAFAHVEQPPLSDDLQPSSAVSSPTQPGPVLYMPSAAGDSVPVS
CAAAAGCCAGUGGCACUGAGCACUGGUGGAAGAUCCACGAGGCCUGCAUGCUUGCUCUAGGCUCUGUGAAGUCUAUCAUCACUGACAGUGUGAAAAAUGGCAGGAUCCAUUUUGAUAUGC: 0.101 ratio
GACUUCCAGAAGGUGCCGAUGCAAACAGGCAUUUUGCCUGGCUGUGAGCCAUGCCACAAGAAGGUGUGUGCCCAUGGCACAUGCCAGCCCAGCAGCCAGGCAGGCUUCACCUGCGAGUGC: 0.0458 ratio
UUGUGCAUAUGAUGCUUGAGAUGGUUUUGCAGAUGCAGACAUCGCUGCAAGGUCAUUCUAAUAGAGACAAGCGGUAUUUUAAACCUUUGAAAGGAAUGGAUGUAACUGUACGUUGGUACA: 0.238 ratio
CCCUUUGACGGGCCUUUUGAUGUGAACAGAUGUUUUCUAGGACAAACUAUAAGGACUAAUUUUAAACUUCAAACAUUCCACUUUUGUAAUUUGUUUUAAAUUGUUUUAUGUAUAGUAAGC: 0.742 ratio
UUUAAUGUGAUGAUGUAAUUGAUGGUUUUUUAUUAUUGUGGUAGGCCUUUUAACAUUUUGUUCUUACACAUACAGUUUUAUGCUCUUUUUUACUCAUUGAAAUGUCAUGUGUUGUCUGAU: 0.549 ratio
AUUUUAUACCCCAAUAAUCAACUCGUUUUUAUAUUAAUGUACUUGUUUCUCUGUUGUAAGAAUAGGCAUUAACACAAAGGAGGCGUCUCGGGAGAGGAUUAGGUUCCAUCCUUUACGUGU: 11 ratio
GCAUGUGGCGAGAUCUCACUGAUGAAGAAAAACAAGAAUAUUUAAACGAAUACGAAGCAGAAAAGAUAGAGUACAAUGAAUCUAUGAAGGCCUAUCAUAAUUCCCCCGCGUACCUUGCUU: 0.529 ratio
CCAGAUGGCUGGUUCUCUAAAGGCAGCAACUACAGUGAAAUCCUAGACAAGUAUUUUAAGAACUUUGAUAAUGGUGAUUCUCGCCUGGACUCCAGUGAAUUCCUGAAGUUUGUGGAACAG: 1.05 ratio
CCUGCCUUCUCAUCUUUAUAGUGCCACGAUUUAUACAGUCCUGUGUCUGACCUGUCAUUUCAUAGCCUGCAGUUCUUGCCAUUGGCACACUUAGAUUUGUCUUCACCCACCAGCUUCGUU: 0.604 ratio
AUGAAGCCAAAUAUUGAACCUCCUGAGAAUGUGGAGUGGAGUGGUGCUGAAGCCUCCAUGUUUAGAGUCCUCAUUGGUACUUACUACGAUAACUUUUGUGCCAUUGCUAGGCUAAUUGGG: 0.306 ratio
AAGACGCUUCUAUCUCUGGGAAAAGAGCAGCAGUUGGCCAUGUUCUUCUGUUUUCUAUUCCUGUCCUAAAUCAAAGAGCAUGGUUCUCAGGAAACCAGUUCCCCGGUCAAAAAAUCUUGU: 0.186 ratio

Block 3
Target: Interferon regulatory factor 7, full length, phosphomimetic (IRF7, Homo sapiens, UniProt Q92985, residues 1-503, S471D/S472D/S475D/S476D/S477D/S483D/S484D/S487D)
Method: protein-binding microarray
Molecule type: double-stranded DNA, one strand shown
Sample: in vitro
Tested at: 2200 nM top
Setting: 60-bp whole probe
With: salmon DNA 0.4 mg/ml
Relative to: random background probes
Reading: higher = stronger binding
Measurement: fitted relative affinity
All sequences stand within: GCCTAGCAC … GTCTTGATTCGCTTGACGCTGCTG
Target sequence (chain): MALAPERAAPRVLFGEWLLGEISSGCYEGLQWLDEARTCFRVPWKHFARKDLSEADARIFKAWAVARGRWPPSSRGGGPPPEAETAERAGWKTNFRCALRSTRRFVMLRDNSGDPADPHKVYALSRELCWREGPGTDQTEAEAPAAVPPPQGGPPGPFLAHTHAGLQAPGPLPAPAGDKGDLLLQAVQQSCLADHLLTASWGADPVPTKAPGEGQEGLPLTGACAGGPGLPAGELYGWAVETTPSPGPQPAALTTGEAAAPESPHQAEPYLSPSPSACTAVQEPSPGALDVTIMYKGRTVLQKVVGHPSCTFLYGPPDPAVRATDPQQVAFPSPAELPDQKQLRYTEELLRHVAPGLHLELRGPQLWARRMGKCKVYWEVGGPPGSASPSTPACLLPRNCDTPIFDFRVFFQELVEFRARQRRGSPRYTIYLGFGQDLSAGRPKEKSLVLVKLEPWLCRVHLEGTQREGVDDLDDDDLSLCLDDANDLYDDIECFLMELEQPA
TTAGATATCGGAACTGGATTAGTGCTA: -0.191 z-score
TCATTTTTTTAATTGAAACTGTGCTAG: 0.704 z-score
TTAGGTCTCTTTATCCTTTAGTGCTAG: 0.697 z-score
TCACTCTTGCTTTTTAGACTGTGCTAG: 1.65 z-score
GTCGGTTTCGGACTGGGGACGTGCTAG: 4.94 z-score
TTAGGTTTCCTTCTGCTTTAGTGCTAG: 2.44 z-score
GACGATCTCAGAGTGGAGACGTGCTAG: -0.336 z-score
TCACCACTCATGCCTCTTACTGTGCTA: 1.7 z-score
GACGGTTTGGGACTGGGGACGTGCTAG: 0.371 z-score
TTAGGTATCGGGTATCGGTTTGTGCTA: 1.62 z-score
GACGGTTTCGACTATCGGGTCGTGCTA: 3.7 z-score
TTAGGTTTCGACTTGCGGTTAGTGCTA: 8.89 z-score
GACGGATTCGGTATCGGGACGTGCTAG: 1.6 z-score
TACGGTTTCGGTTCCGGGACGTGCTAG: 11.9 z-score
GATGGTTTCGGTCTCGGGACGTGCTAG: 6.77 z-score
GGCGGTTTCCTTCTCCTGACGTGCTAG: 2.39 z-score
GACGGACTGGACACTGGGAACGTGCTA: -1.07 z-score
TTAGAACTGGGGTTTCGGTTAGTGCTA: 3.16 z-score

Block 4
Target: Ras GTPase-activating protein-binding protein 1, C-terminal RGG region (G3BP1, Homo sapiens, UniProt Q13283)
Chain of UniProt Q13283 (whole entry, looked up): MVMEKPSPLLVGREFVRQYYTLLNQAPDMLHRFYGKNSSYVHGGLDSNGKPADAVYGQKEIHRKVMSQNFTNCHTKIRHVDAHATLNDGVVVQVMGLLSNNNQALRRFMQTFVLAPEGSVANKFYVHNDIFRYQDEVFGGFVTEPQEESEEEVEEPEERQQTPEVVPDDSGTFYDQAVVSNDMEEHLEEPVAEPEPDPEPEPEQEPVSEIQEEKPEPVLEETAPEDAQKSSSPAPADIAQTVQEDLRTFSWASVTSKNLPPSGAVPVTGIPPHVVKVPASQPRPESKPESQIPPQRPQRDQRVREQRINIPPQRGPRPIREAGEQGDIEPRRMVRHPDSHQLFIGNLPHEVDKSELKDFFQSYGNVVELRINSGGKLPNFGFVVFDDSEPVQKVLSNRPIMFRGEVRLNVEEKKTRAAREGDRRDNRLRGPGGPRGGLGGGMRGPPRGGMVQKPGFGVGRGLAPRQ
Method: RNA Bind-n-Seq
Molecule type: RNA
Sample: in vitro
Tested at: 1 µM
Setting: whole 134-nt RNA, ends assumed
With: 150 mM KCl
Relative to: input library
Reading: higher = stronger binding
Measurement: log2 enrichment
All sequences stand within: GGGAGUUCUACAGUCCGACGAUC … UGGAAUUCUCGGGUGUCAAGG
CAAGUCCUGUGCUACACAUCGUAUGUACCGAAUCGGGCCCGGGGCCCGGCCCGGGAAAGUAUUAUGUUACGCCGUUCGGAUCUGCACUUC: -1.87
AGUCCUGUGCUACACAUCGUAUGUACCGAAUCAAACCCCCCCAAAUUUAAACCCAAAAAAGUAUUAUGUUACGCCGUUCGGAUCUGCACU: -0.832
AGUCCUGUGCUACACAUCGUAUGUACCGAAUCGUGUGUGUGUGUGUGUGUGUGUGUGAAAGUAUUAUGUUACGCCGUUCGGAUCUGCACU: 1.45
CCUGUGCUACACAUCGUAUGUACCGAAUCAAAUUUUUUUAAAUUUUUAAACCCCCCCAAAAAAGUAUUAUGUUACGCCGUUCGGAUCUGC: -0.806
UGGCCCUGGUGGCAUGCGGGGAGGAAGAGGUGGCCUCAUGGAUCGUAGUGGUCCCGGUGGAAUGUUCAGAGGUGGCCGUGGUGGAGACAG: 2.34
CAAGUCCUGUGCUACACAUCGUAUGUACCGAAUCGGGCCCGGGGCCCGGGCCCGGAAAGUAUUAUGUUACGCCGUUCGGAUCUGCACUUC: -2.14
CUCAAGUCCUGUGCUACACAUCGUAUGUACCGAAUCGGGUUUGGGUGGGAGGGAAAGUAUUAUGUUACGCCGUUCGGAUCUGCACUUCCA: 2.42
CAAGUCCUGUGCUACACAUCGUAUGUACCGAAUCGGUUUGGUUUGGAAAAAAAGGAAAGUAUUAUGUUACGCCGUUCGGAUCUGCACUUC: -1.8
CACAGACAACACGCACCCACACAGACACAGAGGGAAGGGGUUGGGAUGGGGAUAGGGUGCACAGCAGGGCGGGGUAGGACCCCAGCCCCU: 0.362
GUCCUGUGCUACACAUCGUAUGUACCGAAUCGGAAAAAAAGGAAAAAAAGGAAAAAGGAAAGUAUUAUGUUACGCCGUUCGGAUCUGCAC: -1.64

Some of these lines once more (block 3):
GGCGGTTTCCTTCTCCTGACGTGCTAG: 2.39 z-score
TCACCACTCATGCCTCTTACTGTGCTA: 1.7 z-score
TTAGATATCGGAACTGGATTAGTGCTA: -0.191 z-score
GTCGGTTTCGGACTGGGGACGTGCTAG: 4.94 z-score
TTAGGTATCGGGTATCGGTTTGTGCTA: 1.62 z-score
TTAGGTCTCTTTATCCTTTAGTGCTAG: 0.697 z-score
GATGGTTTCGGTCTCGGGACGTGCTAG: 6.77 z-score
GACGGTTTCGACTATCGGGTCGTGCTA: 3.7 z-score
